{"data": "Published values gathered from unrelated publications", "Ugcg": "Ceramide glucosyltransferase (Ugcg, Mus musculus, UniProt O88693)", "note": "Compare with care: the assays were run in different laboratories. ± gives the spread as reported.", "UniProt O88693, sequence (whole entry, looked up)": "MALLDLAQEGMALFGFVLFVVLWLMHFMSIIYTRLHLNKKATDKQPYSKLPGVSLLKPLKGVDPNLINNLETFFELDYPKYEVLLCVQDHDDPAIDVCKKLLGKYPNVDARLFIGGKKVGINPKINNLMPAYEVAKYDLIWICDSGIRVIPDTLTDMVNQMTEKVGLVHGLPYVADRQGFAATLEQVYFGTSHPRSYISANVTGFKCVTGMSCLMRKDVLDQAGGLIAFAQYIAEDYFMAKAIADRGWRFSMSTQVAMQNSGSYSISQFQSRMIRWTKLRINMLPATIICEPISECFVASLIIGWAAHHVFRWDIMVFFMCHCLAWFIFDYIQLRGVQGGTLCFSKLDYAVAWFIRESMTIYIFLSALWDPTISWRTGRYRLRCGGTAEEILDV", "UniProt P55211, sequence (whole entry, looked up)": "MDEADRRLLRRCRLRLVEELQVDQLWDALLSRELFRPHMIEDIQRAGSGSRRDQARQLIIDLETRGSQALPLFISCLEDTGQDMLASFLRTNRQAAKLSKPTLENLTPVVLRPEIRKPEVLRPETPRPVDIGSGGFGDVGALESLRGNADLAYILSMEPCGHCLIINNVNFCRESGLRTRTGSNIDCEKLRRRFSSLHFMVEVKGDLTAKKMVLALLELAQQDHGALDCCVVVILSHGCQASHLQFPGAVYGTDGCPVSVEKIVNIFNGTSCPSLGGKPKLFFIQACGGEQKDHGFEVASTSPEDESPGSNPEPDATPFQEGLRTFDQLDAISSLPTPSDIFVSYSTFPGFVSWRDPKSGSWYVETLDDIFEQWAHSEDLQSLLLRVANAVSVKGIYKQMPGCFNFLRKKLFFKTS"}
{"SMILES": "COc1cccc(-c2ccc(COCCCCCN3C[C@H](O)[C@@H](O)[C@H](O)[C@H]3CO)cc2)c1", "tested on": "Ugcg", "assay": "enzyme activity, inhibitor, fluorescence", "endpoint": "IC50", "value": "150 nM"}
{"SMILES": "COC1CN([C@H]2CC[C@H]([C@@]3(C)Oc4c(Cl)cc(C(=O)NCc5c(SC)cc(C)[nH]c5=O)c(C)c4O3)CC2)C1", "assay": "RNA-seq, refers to: PRXL2A", "test system": "human, whole blood", "conditions": "dose not given, 24 h", "scale": "relative to: pretreatment baseline", "endpoint": "log2 fold change", "value": 1.03}
{"SMILES": "O=C(Nc1cnccc1-c1ccc([18F])nc1)c1ccnc(NC(=O)C2CC2)c1", "test system": "FVB/NJ mouse, both sexes, liver", "conditions": "intravenous, 5 min", "endpoint": "SUV", "value": 7.51}
{"SMILES": "COc1cnc2cccc(N3CCc4c(cc(Cn5ccnc5)cc4-c4cn(C)nc4C(F)(F)F)C3=O)c2c1", "test system": "CD-1 mouse, male, plasma", "conditions": "intravenous, 3 mg/kg", "endpoint": "AUC extrapolated", "value": "0.4%"}
{"SMILES": "O=C(N/N=C/c1ccc(C[n+]2ccccc2)cc1)C(=O)N/N=C/c1ccc(C[n+]2ccccc2)cc1", "tested on": "22CTA telomeric G4-DNA antiparallel", "assay": "FRET melting", "conditions": "1 µM, K10 buffer, DNA 0.2 µM", "endpoint": "ΔTm", "value": "7 ± 3.7 °C"}
{"SMILES": "Fc1ccc(OCC2CN(Cc3ncn4ccccc34)CCC2(F)F)cc1 (stereo not drawn)", "assay": "equilibrium dialysis", "test system": "human plasma", "endpoint": "fu", "value": 0.0076}
{"SMILES": "C=C(NC(=O)c1csc(-c2nc3c(cc2O)-c2nc(cs2)C(=O)NC(C(C)O)C(=O)NC(=C(C)OC)c2nc(cs2)C(=O)NC2c4nc(cs4)C(=O)NC(COC(=O)c4c5c6c(cccc6n4O)COC(=O)C(OC4CC(C)(O)C(N(C)C)C(C)O4)C2OC5)c2nc-3cs2)n1)C(N)=O (stereo not drawn)", "test system": "cynomolgus monkey, both sexes, plasma", "conditions": "intravenous infusion, 1.5 mg/kg twice daily, 6 to 12 h, second dose", "endpoint": "Cmax", "value": "11900 ± 7800 ng/mL"}
{"SMILES": "CS(=O)(=O)c1ccc(-c2ccc(C3CCCCC3)cc2)cn1", "assay": "liver microsome stability", "test system": "human liver microsomes", "conditions": "1 µM, without NADPH", "endpoint": "hepatic clearance", "value": "8.3 mL/min/kg"}
{"SMILES": "Nc1ncc(-c2cc(-c3cnn(CC(F)(F)F)c3)ncc2F)nc1C(=O)NC1CNCC(F)C1 (stereo not drawn)", "tested on": "MAK", "assay": "KINOMEscan", "conditions": "1 µM", "scale": "relative to: DMSO control", "endpoint": "remaining binding", "value": "100%"}
{"SMILES": "O=C(c1ccc(C2CCCCC2)cc1)N1CCC(F)CC1", "assay": "liver microsome stability", "test system": "rat liver microsomes", "conditions": "1 µM", "endpoint": "hepatic clearance", "value": "52 mL/min/kg"}
{"SMILES": "OC1(C(F)(F)F)CCN(c2nc(Nc3ccnc(C(F)(F)F)c3)nc(-c3cccc(C(F)(F)F)n3)n2)C1 (stereo not drawn)", "test system": "monkey, plasma", "conditions": "oral, 1 mg/kg", "endpoint": "Cmax", "value": "255 ± 49.3 ng/mL"}
{"SMILES": "N#Cc1ccccc1-c1ccc(COCCCCCN2C[C@H](O)[C@@H](O)[C@H](O)[C@H]2CO)cc1", "tested on": "Ugcg", "assay": "enzyme activity, inhibitor, fluorescence", "endpoint": "IC50", "value": "150 nM"}
{"SMILES": "CC(C)(O)c1ncc([S@](N)(=O)=NC(=O)Nc2c3c(cc4c2CCC4)CCC3)s1", "assay": "refers to: Vascular disorders", "test system": "healthy human volunteers", "conditions": "oral, 200 mg once daily, 14 days, spray-dried dispersion", "endpoint": "subjects with adverse events", "value": "14%"}
{"SMILES": "Nc1ncc(-c2ccc(C3CCCCC3)cc2)cn1", "assay": "liver microsome stability", "test system": "dog liver microsomes", "conditions": "1 µM", "endpoint": "hepatic clearance", "value": "29 mL/min/kg"}
{"SMILES": "COc1cccc(OC)c1-c1cc(C(=O)NC2(C(=O)O)C3CC4CC(C3)CC2C4)nn1-c1ccc(C(=O)N(C)CCOCCOCCN(C)C(=O)[C@H](CCCCNC(=O)[C@H](CC(C)C)NC(=O)C2OC2C(=O)O)NC(=O)CN2CCN(CC(=O)[O-])CCN(CC(=O)[O-])CCN(CC(=O)[O-])CC2)cc1C(C)C.[177Lu+3] (mixture of isomers)", "test system": "mouse, HT-29 xenograft", "conditions": "24 h post injection, biodistribution", "scale": "relative to: tumour over bone uptake", "endpoint": "tumour-to-bone ratio", "value": 2.66}
{"SMILES": "Cc1nn(-c2cccc(N)c2)c(=O)c2cnc(Nc3ccc(N4CCNCC4)cc3)nc12", "tested on": "Epidermal growth factor receptor (EGFR, Homo sapiens, UniProt P00533, L861Q)", "assay": "SelectScreen kinase", "endpoint": "IC50", "value": "2880 nM"}
{"SMILES": "C/C(N)=N/C(=N\\S(=O)(=O)c1ccc(C(F)(F)F)cc1)N1C[C@H](c2ccccc2)C(c2ccc(Cl)cc2)=N1", "test system": "male C57BL/6 mouse, heart", "conditions": "intravenous, 10 mg/kg", "endpoint": "Cmax", "value": "7720 ng/mL"}
{"SMILES": "CN(C)C(=O)CNC(=O)c1ccc([C@H]2[C@@H](F)[C@@H](F)C[C@@H](F)[C@H]2F)cc1", "assay": "hepatocyte stability", "test system": "cryopreserved rat hepatocytes", "conditions": "1 µM", "endpoint": "hepatic clearance", "value": "10 mL/min/kg"}
{"SMILES": "COC(=O)[C@@]1(C)C=C(C(=O)Nc2cccc(C(=O)Nc3ccc(Nc4nccc(-c5cccnc5)n4)c(C)c3)c2)C(=O)CC1", "test system": "Wistar rat male, blood plasma", "conditions": "1 µM, 15 min", "endpoint": "compound remaining", "value": "72.8%"}
{"SMILES": "C=CC(=O)Nc1cc(Nc2nccc(-c3cn(C)c4ccccc34)n2)c(OC)cc1N(C)CCNC", "assay": "storage stability", "test system": "human plasma", "conditions": "10 d, -80 °C, LQC level", "endpoint": "recovery", "value": "102%"}
{"SMILES": "O=C(Nc1ccc([C@H]2[C@@H](F)[C@@H](F)C[C@@H](F)[C@H]2F)cc1)C1(N2CCOCC2)CC1", "assay": "hepatocyte stability", "test system": "cryopreserved human hepatocytes", "conditions": "1 µM", "endpoint": "hepatic clearance", "value": "14 mL/min/kg"}
{"SMILES": "CCN(CC)c1ccc2c(c1)O[B-]1(c3ccccc3)OC(=O)C(c3ccccc3)=N[N+]1=C2C(C)C (stereo not drawn)", "test system": "toluene", "endpoint": "fluorescence quantum yield", "value": 0.65}
{"SMILES": "CC[C@H](C)[C@H](NC(C)=O)C(=O)N[C@@H](CCC(=O)O)C(=O)N[C@H](C(=O)N[C@@H](CC(=O)O)C(=O)COC(=O)c1c(C)cccc1C)[C@@H](C)O", "tested on": "Caspase-9 (CASP9, Homo sapiens, UniProt P55211)", "assay": "enzyme activity, inhibitor", "endpoint": "kinact/KI", "value": "56200 M⁻¹ s⁻¹"}
{"SMILES": "O=C(c1ccc(-c2ccccc2)cc1)N1CCCCC1", "assay": "metabolic stability", "test system": "human, liver microsomes", "conditions": "2 µM, 25 min, pH 7.4", "endpoint": "compound remaining", "value": "87%"}
